Assay results collected from several papers.
Lines come from different studies, so protocols differ. ± gives the spread as reported.

SMILES	target or system	test	test system	setting	scale	quantity	result
CC(C)C[C@H](NC(=O)[C@H](CC(=O)O)NC(=O)[C@H](Cc1ccc(O)cc1)NC(=O)CNC(=O)CN(C)C(=O)CCCC(=O)O)C(=O)N[C@@H](Cc1ccc(O)cc1)C(=O)N[C@@H](CCCNC(=N)N)C(=O)N[C@H](C(=O)N[C@@H](CCCNC(=N)N)C(=O)N[C@@H](CO)C(N)=O)C(C)C	human dermal microvascular endothelial cells	–	–	added: VEGF	–	EC50	0.03 µM
C(=C/c1ccccc1)/c1ccccc1	MOLT-3	apoptosis, Hoechst nuclear staining	–	24 h, 50% apoptosis induction	–	EC50	50 µM
CNc1ccccc1C(=O)O[C@H]1C[C@H](n2cnc3c(N)ncnc32)O[C@@H]1COP(=O)(O)OP(=O)(O)O	Unconventional myosin-Va (Gallus gallus, UniProt Q02440, D297C/G292C/I296C/S293C/V295G)	stopped-flow FRET	–	4 °C, added: MgCl2 10 mM	–	dissociation rate constant	0.68 ± 0.01 s⁻¹
C[n+]1cn(C2OC(COP(=O)(O)OP(=O)([O-])C(Cl)(Cl)P(=O)(O)O)C(O)C2O)c2nc(N)nc(O)c21 (stereo not drawn)	–	cap-dependent translation, inhibitor	rabbit reticulocyte lysate	60 min, 30 °C, no preincubation	–	IC50	0.97 ± 0.13 µM
Cc1ccc(-c2nc3ccc(C)cn3c2CN2CCN(c3cccc(C(F)(F)F)c3)CC2)cc1	CRL8155	cell growth or viability	–	48 h	–	EC50	47.6 µM
CCCCOc1nc(N)c2[nH]c(=O)n(CCCN(CCCN3CCOCC3)Cc3cccc(CC(=O)OC)c3)c2n1	human PBMC	IFNα induction, inducer, ELISA, measured: IFNα	–	24 h	–	EC50	0.004 µM
CCC/C(=C\C1=C(OC)C(=O)c2ccccc2C1=O)C(=O)NOC	Pa03C cells	HIF1α reporter gene, luciferase reporter	–	24 h, 1% oxygen hypoxia	–	EC50	9.7 ± 1.24 µM
[64Cu+2].c1ccc(CNCc2ccc(CN3CCCN4CCNCCCN(CC4)CC3)cc2)nc1	CXCR4	–	NOD/SCID mouse, U87 and U87-stb-CXCR4 xenografts, kidney	iv, 30 min, ex vivo	–	tissue uptake	34 ± 5.69 %ID/g
Cc1ccc2nc(-c3ccc(Cl)cc3)c(CN3CCN(c4cccc(C(F)(F)F)c4)CC3)n2c1	CRL8155	cell growth or viability	–	48 h	–	EC50	> 50 µM
CC(=O)Nc1nnc(N2CCN([C@@H](C)c3ccc4c(c3)OCO4)CC2)s1	HEK293	protein O-GlcNAcylation, RL2 immunoassay	–	–	higher = accumulation	EC50	0.32 µM
Cc1ccc2nc(-c3ccccc3)c(CN3CCN(c4ccccc4)CC3)n2c1	CRL8155	cell growth or viability	–	48 h	–	EC50	> 50 µM
COc1cccc(OC)c1OCCCn1cc(CCCNc2nc3c(c(=O)[nH]2)[n+](C)cn3C2OC(COP(=O)(O)OP(=O)([O-])OP(=O)(O)OCC3OC(n4cnc5c(=O)[nH]c(N)nc54)C(O)C3O)C(O)C2O)nn1 (stereo not drawn)	–	cap-dependent translation, inhibitor	rabbit reticulocyte lysate	added: ARCA-capped luciferase mRNA	–	IC50	1.3 ± 0.23 µM
Cc1cc2cc(O)c(O)cc2c(O)c1-c1c(C)cc2cc(O)c(O)cc2c1O	PC3-ML	ATP-lite viability	–	72 h	–	EC50	12.6 µM
CCC/C(=C\C1=C(F)C(=O)c2ccccc2C1=O)C(=O)N(CC)CC	NF90-8 cells	HIF1α reporter gene, luciferase reporter	–	24 h, 1% oxygen hypoxia	–	EC50	9.7 ± 1.21 µM
O=C(Cc1ccc([N+](=O)[O-])cc1)N[C@@H](Cc1c[nH]c2ccccc12)C(=O)NCC1(c2ccccn2)CCCCC1	human neutrophils	chemotaxis, agonist	–	–	–	EC50	1.4 ± 0.37 µM
CC(C)[C@H](C(=O)Nc1ncc(F)s1)c1ccc(Cl)cc1	HEK293 expressing human GPR43	NF-κB reporter gene, luciferase	–	6 h, added: 10 ng/mL TNF-α	–	EC50	12.1 µM
CC(C)C[C@H](NC(=O)[C@H](CC(N)=O)NC(=O)[C@H](Cc1ccc(O)cc1)NC(=O)CNC(=O)CN(C)C(=O)CCCC(=O)O)C(=O)N[C@@H](Cc1ccc(O)cc1)C(=O)N[C@@H](CCCNC(=N)N)C(=O)N[C@H](C(=O)N[C@@H](CCCNC(=N)N)C(=O)N[C@@H](CO)C(N)=O)C(C)C	human dermal microvascular endothelial cells	–	–	added: VEGF	–	EC50	0.015 µM
Cc1ccc2nc(-c3ccccc3)c(CNc3cccc(C(F)(F)F)c3)n2c1	CRL8155	cell growth or viability	–	48 h	–	EC50	> 50 µM
CO[C@@H]1[C@H](O)[C@@H](COP(=O)(O)OP(=O)([O-])C(F)(F)P(=O)(O)OP(=O)(O)OC[C@H]2O[C@@H](n3cnc4c(=O)[nH]c(N)nc43)[C@H](O)[C@@H]2O)O[C@H]1n1c[n+](C)c2c(O)nc(N)nc21	–	cap-dependent translation, inhibitor	rabbit reticulocyte lysate	60 min, 30 °C, no preincubation	–	IC50	2.16 ± 0.23 µM
Cc1ccc2nc(-c3ccc(F)c(F)c3)c(CN3CCN(CCc4cccnc4)CC3)n2c1	CRL8155	cell growth or viability	–	48 h	–	EC50	> 50 µM
Nc1nc2c(ncn2[C@@H]2O[C@@H]3COP(=O)(O)O[C@H]4[C@@H](F)[C@H](n5cnc6c(N)ncnc65)O[C@@H]4CSP(=O)(O)O[C@H]2[C@@H]3O)c(=O)[nH]1	THP1-Dual	IRF reporter, agonist	–	24 h	–	EC50	1.57 ± 0.01 µM
Cc1ccc2nc(-c3ccccc3)c(CN3CCCC3)n2c1	CRL8155	cell growth or viability	–	48 h	–	EC50	> 50 µM
CC1=C(C2=C(C)C(=O)c3c(cc(O)c(O)c3Cc3ccccc3)C2=O)C(=O)c2cc(O)c(O)c(Cc3ccccc3)c2C1=O (racemic)	H23 human lung cancer	cell viability, ATP luminescence	–	72 h	–	EC50	0.25 ± 0.01 µM
CCn1nc2c(c1Nc1nc(-c3ccc(-n4cnc(C)c4)c(OC)n3)cs1)CCCC2	CHO APPwt/PS1 M146L	Aβ38 production, modulator	–	–	–	EC50	0.499 ± 0.203 µM
FC(F)(F)c1ccnc(-c2cc(C(F)(F)F)ccn2)c1.FC(F)(F)c1ccnc(-c2cc(C(F)(F)F)ccn2)c1.[Cl-].[Cl-].[Ru+2].c1csc(-c2ccc(-c3ccc(-c4ccc(-c5nc6c7cccnc7c7ncccc7c6[nH]5)s4)s3)s2)c1	SK-MEL-28	cell viability	–	100 J/cm2 light, normoxia, added: visible light 400-700 nm	–	EC50	0.01 µM
Cc1ccc2nc(-c3ccccc3)c(CN3CCN(c4cccc(Cl)c4Cl)CC3)n2c1	CRL8155	cell growth or viability	–	48 h	–	EC50	33 µM
COc1cccc(Cc2cc(C)nn(S(=O)(=O)c3cccc4c(N(C)C)cccc34)c2=O)c1	human neutrophils	calcium flux, agonist	–	–	–	EC50	26 ± 13.8 µM
Cc1ccc2nc(-c3ccccc3)c(CN3CCCCC3)n2c1	CRL8155	cell growth or viability	–	48 h	–	EC50	> 50 µM
CCC/C(=C\C1=C(C(F)(F)F)C(=O)c2ccccc2C1=O)C(=O)N(CC)CC	Pa03C cells	HIF1α reporter gene, luciferase reporter	–	24 h, 1% oxygen hypoxia	–	EC50	8.3 ± 1.23 µM
Cn1c(=O)oc2ccc(-c3ccc(CC(C#N)NC(=O)C4CNCCCO4)c(F)c3)cc21 (stereo not drawn)	–	–	human volunteers, plasma	40 mg single dose, fasted, median	–	Tmax	1 h
